Published values gathered from unrelated publications.
Lines come from different studies, so protocols differ. ± marks the error that the study gave.
GBA2: Beta-glucosidase (GBA2, Homo sapiens, UniProt Q9HCG7)
Chain of UniProt Q9HCG7 (whole entry, looked up): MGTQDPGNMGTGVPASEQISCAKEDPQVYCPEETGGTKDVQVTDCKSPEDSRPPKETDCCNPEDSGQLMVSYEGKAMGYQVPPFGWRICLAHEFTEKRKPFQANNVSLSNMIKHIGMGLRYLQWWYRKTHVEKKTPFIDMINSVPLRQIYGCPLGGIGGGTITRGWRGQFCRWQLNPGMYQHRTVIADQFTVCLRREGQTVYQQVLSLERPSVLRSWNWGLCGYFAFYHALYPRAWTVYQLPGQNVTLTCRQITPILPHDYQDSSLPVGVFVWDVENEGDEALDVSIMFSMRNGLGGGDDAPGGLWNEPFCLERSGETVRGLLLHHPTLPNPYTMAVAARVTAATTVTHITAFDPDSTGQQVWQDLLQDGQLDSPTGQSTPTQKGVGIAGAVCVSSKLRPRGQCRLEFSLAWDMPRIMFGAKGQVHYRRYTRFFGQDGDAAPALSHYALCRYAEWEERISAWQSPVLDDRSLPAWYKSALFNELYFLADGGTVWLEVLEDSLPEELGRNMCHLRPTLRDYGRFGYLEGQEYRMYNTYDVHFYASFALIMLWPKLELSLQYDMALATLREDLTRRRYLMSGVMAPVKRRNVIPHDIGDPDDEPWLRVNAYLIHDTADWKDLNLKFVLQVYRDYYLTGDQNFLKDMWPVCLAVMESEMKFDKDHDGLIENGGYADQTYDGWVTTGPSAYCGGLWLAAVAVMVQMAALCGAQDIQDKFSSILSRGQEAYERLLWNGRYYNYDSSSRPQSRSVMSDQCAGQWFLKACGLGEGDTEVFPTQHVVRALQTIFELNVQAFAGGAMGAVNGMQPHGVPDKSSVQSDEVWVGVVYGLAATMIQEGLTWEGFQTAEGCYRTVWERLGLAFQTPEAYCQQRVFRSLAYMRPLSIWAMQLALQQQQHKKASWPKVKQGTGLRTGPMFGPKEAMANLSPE
Chymotrypsinogen A: Chymotrypsinogen A (Bos taurus, UniProt P00766)
PPARA ligand-binding domain: Peroxisome proliferator-activated receptor alpha, ligand-binding domain (PPARA, Homo sapiens, UniProt Q07869)
Chain of UniProt Q07869 (whole entry, looked up): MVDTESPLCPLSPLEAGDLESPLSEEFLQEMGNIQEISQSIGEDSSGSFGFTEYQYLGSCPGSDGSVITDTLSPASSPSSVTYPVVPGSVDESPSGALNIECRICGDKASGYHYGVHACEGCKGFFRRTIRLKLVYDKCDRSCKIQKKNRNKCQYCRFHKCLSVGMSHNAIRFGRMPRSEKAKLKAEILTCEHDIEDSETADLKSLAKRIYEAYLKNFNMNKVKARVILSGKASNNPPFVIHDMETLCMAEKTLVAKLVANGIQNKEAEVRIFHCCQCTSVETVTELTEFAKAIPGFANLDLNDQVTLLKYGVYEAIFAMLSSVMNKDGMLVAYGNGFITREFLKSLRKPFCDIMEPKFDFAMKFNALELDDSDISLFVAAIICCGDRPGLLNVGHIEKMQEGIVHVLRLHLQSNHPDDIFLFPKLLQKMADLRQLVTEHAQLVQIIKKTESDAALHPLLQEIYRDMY
Chain of UniProt Q8IXJ6 (whole entry, looked up): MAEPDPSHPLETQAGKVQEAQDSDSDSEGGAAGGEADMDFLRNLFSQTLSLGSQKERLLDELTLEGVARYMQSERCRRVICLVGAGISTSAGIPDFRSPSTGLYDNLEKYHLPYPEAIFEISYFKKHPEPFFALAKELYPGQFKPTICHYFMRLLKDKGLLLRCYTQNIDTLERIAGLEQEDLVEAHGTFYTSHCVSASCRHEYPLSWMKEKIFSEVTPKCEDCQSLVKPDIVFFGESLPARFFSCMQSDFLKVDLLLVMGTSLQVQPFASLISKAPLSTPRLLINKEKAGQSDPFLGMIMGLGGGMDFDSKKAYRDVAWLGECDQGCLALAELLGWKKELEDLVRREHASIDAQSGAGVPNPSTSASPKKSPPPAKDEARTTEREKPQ
Chain of UniProt Q9P286 (whole entry, looked up): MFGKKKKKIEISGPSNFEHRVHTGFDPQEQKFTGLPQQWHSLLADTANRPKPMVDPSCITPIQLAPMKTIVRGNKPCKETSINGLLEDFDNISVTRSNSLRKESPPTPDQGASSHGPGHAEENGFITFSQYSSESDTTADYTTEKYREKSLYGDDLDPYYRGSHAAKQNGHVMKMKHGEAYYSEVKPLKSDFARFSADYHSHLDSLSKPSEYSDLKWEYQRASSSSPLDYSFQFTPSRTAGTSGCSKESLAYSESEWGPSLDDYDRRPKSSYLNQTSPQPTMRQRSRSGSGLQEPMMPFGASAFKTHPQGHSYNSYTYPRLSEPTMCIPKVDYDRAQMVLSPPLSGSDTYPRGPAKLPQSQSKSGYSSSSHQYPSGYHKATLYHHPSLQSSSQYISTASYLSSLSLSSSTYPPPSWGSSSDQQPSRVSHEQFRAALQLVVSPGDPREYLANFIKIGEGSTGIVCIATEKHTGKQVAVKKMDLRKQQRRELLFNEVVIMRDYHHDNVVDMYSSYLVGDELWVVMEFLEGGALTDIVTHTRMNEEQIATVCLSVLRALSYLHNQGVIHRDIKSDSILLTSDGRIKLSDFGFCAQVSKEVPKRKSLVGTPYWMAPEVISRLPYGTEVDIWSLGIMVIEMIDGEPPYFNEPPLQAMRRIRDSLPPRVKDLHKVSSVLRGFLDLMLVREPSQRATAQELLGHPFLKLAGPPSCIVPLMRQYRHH
Chain of UniProt O14757 (whole entry, looked up): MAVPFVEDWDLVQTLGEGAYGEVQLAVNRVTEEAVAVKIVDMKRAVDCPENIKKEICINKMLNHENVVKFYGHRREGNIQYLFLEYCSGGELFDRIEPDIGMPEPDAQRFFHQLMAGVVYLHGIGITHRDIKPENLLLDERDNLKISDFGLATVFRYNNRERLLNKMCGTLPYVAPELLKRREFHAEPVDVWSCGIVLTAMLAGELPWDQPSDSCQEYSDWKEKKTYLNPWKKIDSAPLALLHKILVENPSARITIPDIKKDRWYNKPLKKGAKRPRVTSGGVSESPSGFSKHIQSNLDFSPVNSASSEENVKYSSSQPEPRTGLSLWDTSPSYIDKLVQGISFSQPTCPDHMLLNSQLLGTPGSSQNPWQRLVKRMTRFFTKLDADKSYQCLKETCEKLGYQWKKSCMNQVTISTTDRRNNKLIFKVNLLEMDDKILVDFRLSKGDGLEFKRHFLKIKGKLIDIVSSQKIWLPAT
Chain of UniProt Q9NSU2 (whole entry, looked up): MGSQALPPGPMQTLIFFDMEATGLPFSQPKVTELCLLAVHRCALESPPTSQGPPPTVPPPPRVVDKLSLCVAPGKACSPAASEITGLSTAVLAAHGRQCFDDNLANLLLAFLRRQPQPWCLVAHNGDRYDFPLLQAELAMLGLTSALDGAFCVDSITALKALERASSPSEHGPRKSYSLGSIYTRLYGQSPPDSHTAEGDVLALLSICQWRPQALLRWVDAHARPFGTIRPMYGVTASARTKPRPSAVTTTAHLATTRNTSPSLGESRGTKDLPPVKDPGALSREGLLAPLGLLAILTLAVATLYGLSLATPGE
Chain of UniProt O15146 (whole entry, looked up): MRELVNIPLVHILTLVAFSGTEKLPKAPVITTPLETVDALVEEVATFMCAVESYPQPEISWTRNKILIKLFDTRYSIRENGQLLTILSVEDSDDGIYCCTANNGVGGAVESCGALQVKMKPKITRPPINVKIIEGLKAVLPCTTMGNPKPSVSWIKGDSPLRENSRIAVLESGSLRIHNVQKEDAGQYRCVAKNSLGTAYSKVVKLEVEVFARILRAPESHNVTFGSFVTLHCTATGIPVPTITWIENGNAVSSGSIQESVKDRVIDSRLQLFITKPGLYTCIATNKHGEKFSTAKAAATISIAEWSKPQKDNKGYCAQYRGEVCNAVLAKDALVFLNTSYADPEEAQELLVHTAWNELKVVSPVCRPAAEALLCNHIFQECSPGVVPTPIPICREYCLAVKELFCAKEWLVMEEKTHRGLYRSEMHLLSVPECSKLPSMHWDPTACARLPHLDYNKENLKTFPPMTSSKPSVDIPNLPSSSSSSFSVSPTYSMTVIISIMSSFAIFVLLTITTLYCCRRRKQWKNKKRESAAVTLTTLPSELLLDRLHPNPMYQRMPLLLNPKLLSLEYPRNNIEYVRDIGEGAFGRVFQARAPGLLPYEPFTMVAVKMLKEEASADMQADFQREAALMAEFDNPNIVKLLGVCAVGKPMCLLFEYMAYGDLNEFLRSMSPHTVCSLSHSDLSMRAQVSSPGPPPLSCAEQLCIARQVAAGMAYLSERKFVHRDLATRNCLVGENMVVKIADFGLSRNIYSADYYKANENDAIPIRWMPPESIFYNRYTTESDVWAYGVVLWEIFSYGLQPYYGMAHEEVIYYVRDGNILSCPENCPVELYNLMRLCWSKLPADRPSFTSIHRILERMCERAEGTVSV
Chain of UniProt P10997 (whole entry, looked up): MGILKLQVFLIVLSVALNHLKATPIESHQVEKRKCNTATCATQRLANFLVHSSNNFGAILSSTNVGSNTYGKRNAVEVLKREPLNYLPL

SMILES | target | assay | system | setting | IC50
O=C1Nc2ccccc2C12NC(c1ccc(F)cc1)C1(C(=O)Nc3ccccc31)N2Cc1ccc(F)cc1 (stereo not shown) | PIK3CG (Homo sapiens, UniProt P48736) | enzyme activity, inhibitor, ADP detection |  |  | 0.0391 µM
CCCCCN1C[C@H](O)[C@@H](O)[C@H](O)[C@@H]1CO | GBA2 | inhibitor, 4MU-β-D-glucopyranoside | HEK293T homogenates overexpressing GBA2 |  | 0.25 µM
Cc1cc(C)nc(SCC(=O)Nc2ncc(Cc3cccc(OCc4cn(-c5ccc(Cl)cc5)nn4)c3)s2)n1 | SIRT2 (Homo sapiens, UniProt Q8IXJ6) | inhibitor |  |  | 0.22 ± 0.04 µM
O=C(Nc1ccc(Cc2ccccc2)cc1)C(C(F)(F)F)C(F)(F)F | Chymotrypsinogen A | enzyme activity, inhibitor, fluorescence |  |  | > 100 µM
Cc1ccc2c(c1Br)C(O)(CC(=O)c1ccc3c(c1)OCO3)C(=O)N2 (stereo not shown) | Uncharacterized protein (Trypanosoma brucei brucei, UniProt Q386Q8) | enzyme activity, inhibitor, coupled colorimetric |  | with: E. coli pyrophosphatase coupling | 42.2 µM
Cc1nn(-c2cccc(N)c2)c(=O)c2cnc(Nc3ccc(N4CCNCC4)cc3)nc12 | PAK5 (Homo sapiens, UniProt Q9P286) | enzyme activity, inhibitor |  |  | > 10 µM
Cc1ccc(S(=O)(=O)N2CC(NC(=O)c3cccc(F)c3)C2=O)cc1 (stereo not shown) | Chymotrypsinogen A | enzyme activity, inhibitor, fluorescence |  |  | 124 µM
Cc1c(Cc2cccc(OC(C)(C)C(=O)O)c2)c2ccc(C(=O)N[C@@H](C)c3cccc(C(F)(F)F)c3)cc2n1C | PPARA ligand-binding domain | reporter gene, luciferase reporter | HEK293T, Gal4-PPARα LBD |  | 0.87 µM
OC[C@H]1c2[nH]cnc2[C@H](O)[C@@H](O)[C@@H]1O | GBA2 |  | HEK293 lysate overexpressing enzyme | pH 5.8, with: 4-MU-β-D-glucopyranoside | > 50 µM
OC[C@@H]1[C@@H](O)[C@H](O)[C@@H](O)CN1CCCCCOCc1ccc(-c2ccc(Cl)cc2)cc1 | GBA2 | inhibitor, 4MU-β-D-glucopyranoside | HEK293T homogenates overexpressing GBA2 |  | 0.002 µM
CN(C)c1ccc(/N=N/c2ccc(C(=O)NCCCCN)cc2)cc1 | IAPP (Homo sapiens, UniProt P10997) | ThT displacement, ThT fluorescence |  | pH 7.4, preformed target-ThT complex, with: 5 µM ThT | 3 µM
Cc1c(Cc2cccc(OC(C)C(=O)O)c2)c2ccc(C(=O)N[C@@H](C)c3cccc(C(F)(F)F)c3)cc2n1C (stereo partly shown) | PPARA ligand-binding domain | reporter gene, luciferase reporter | HEK293T, Gal4-PPARα LBD |  | 6.14 µM
COc1cc(-c2ccc3c(c2)Nc2ccc(C(=O)N4CCCC4CO)cc2NC3=O)ccc1O (stereo not shown) | CHEK1 (Homo sapiens, UniProt O14757) | enzyme activity, inhibitor |  |  | 0.0378 µM
O=C1NC(=O)C(N2CCc3cc(Cl)ccc32)=C1c1ccccc1 | Sensor histidine kinase AirS (Staphylococcus aureus, UniProt Q2FX96) | autophosphorylation, inhibitor, BODIPY-FL-ATPγS in-gel fluorescence |  | lower bound of confidence interval | > 1000 µM
Cc1c(Cc2ccc(OC(C)(C)C(=O)O)cc2)c2ccc(C(=O)N[C@@H](C)c3cccc(C(C)(C)C)c3)cc2n1C | PPARA ligand-binding domain | reporter gene, luciferase reporter | HEK293T, Gal4-PPARα LBD |  | 1.23 µM
CCn1nc(Cl)c2c1-c1cnc(N)c(c1)O[C@H](C)c1cc(F)ccc1-c1nn(C)cc1C2 | MUSK (Homo sapiens, UniProt O15146) | enzyme activity, inhibitor, radiometric |  |  | 0.09 µM
OC[C@H]1N[C@H](CCCCCOCC23CC4CC(CC(C4)C2)C3)[C@H](O)[C@@H](O)[C@@H]1O | GBA2 | inhibitor, 4MU-β-D-glucopyranoside | HEK293T homogenates overexpressing GBA2 |  | 0.3 µM
CN(Cc1ccccc1)C(=O)c1ccccc1NC(=O)C(C(F)(F)F)C(F)(F)F | Chymotrypsinogen A | enzyme activity, inhibitor, fluorescence |  |  | 262 µM
O=C(O)c1cc(C(=O)CC(=O)c2cc(C(=O)O)c(O)c3ccccc23)c2ccccc2c1O | TREX1 (Homo sapiens, UniProt Q9NSU2) | exonuclease activity, inhibitor |  | with: dsDNA substrate | 5.13 ± 0.386 µM

Excerpt of the above:
SMILES | target | assay | system | setting | IC50
CN(C)c1ccc(/N=N/c2ccc(C(=O)NCCCCN)cc2)cc1 | IAPP (Homo sapiens, UniProt P10997) | ThT displacement, ThT fluorescence |  | pH 7.4, preformed target-ThT complex, with: 5 µM ThT | 3 µM
